Results of several laboratories.
Each line is one published result; not all experiments were run side by side. Several values in a cell are separate wells, animals, samples, runs or records.
CDK5: Cyclin-dependent kinase 5 (CDK5, Homo sapiens, UniProt Q00535)
CDK5 with p25: Cyclin-dependent kinase 5, with p25 (CDK5, Homo sapiens, UniProt Q00535)
CDK5 with p35: Cyclin-dependent kinase 5, with p35 (CDK5, Homo sapiens, UniProt Q00535)

| SMILES | target | test | test system | setting | scale | measurement | value |
| --- | --- | --- | --- | --- | --- | --- | --- |
| COc1c(Cl)cccc1Nc1c(-c2ccncc2C#C[C@@]2(C)CCCN2C(=O)/C=C/CN(C)C)[nH]c2c1C(=O)NCC2 | CDK5 | binding, competition with immobilised ligand | – | 3 µM | – | remaining binding | 95% |
| C=CC(=O)N1CCc2ccc(-n3c(=O)ccc4cnc5ccc(-c6cnn(C)c6)cc5c43)cc21 | CDK5 | KINOMEscan | – | 1 µM | relative to: DMSO control | remaining binding | 92% |
| Cc1cc(C)nc(Nc2ccc([C@@H]3CCCN(C(=O)/C=C/c4c(C)nn(C)c4C)C3)nc2)n1 | CDK5 with p25 | enzyme activity, inhibitor, ADP detection | – | 1 µM | – | activity vs control | 99% |
| CNC1C[S+]2CC[S+]3CC[S+](C1)[Ru-4]321([N]=C=S)[n]2c3ccc(OC)cc3c3c4c(c5cc(F)c[n+]1c5c32)C(=O)NC4=O (stereo not shown) | CDK5 | KinomeScan | – | 0.1 µM | relative to: untreated | remaining binding | 88% |
| Cc1cc(C)nc(Nc2ccc([C@@H]3CCCN(C(=O)/C=C/c4csc(C)n4)C3)nc2)n1 | CDK5 with p35 | enzyme activity, inhibitor, ADP detection | – | 1 µM | – | activity vs control | 105% |
| CCN1CCN(Cc2ccc(C(=O)Nc3ccc(C)c(NCc4cnc5[nH]ccc5c4OC)c3)cc2C(F)(F)F)CC1 | CDK5 | binding, competition with immobilised ligand | – | 1 µM | – | remaining binding | 100% |
| C=CC(=O)Nc1cccc(-c2cnc3[nH]cc(C(=O)NC(C)(C)C)c3n2)c1 | CDK5 | kinase activity | – | 0.1 µM | – | inhibition | 14% and 16% |
| O=C(Cc1ccc(OCc2ccccc2)cc1)NC1(C(=O)O)CCN(C(=O)c2ccc(-c3cccc(Cl)c3)cc2)CC1 | CDK5 with p35 | enzyme activity, inhibitor | – | 10 µM | – | activity vs control | 136% |
| Nc1ncc(-c2cc(-c3cnn(CC(F)(F)F)c3)ncc2F)nc1C(=O)NC1CNCC(F)C1 (stereo not shown) | CDK5 with p25 | enzyme activity | – | 1 µM | relative to: DMSO control | remaining activity | 91.1% |
| Cc1ccc(-c2c(/C=C(\C#N)C(=O)NC(C)C)n(CCCO)c3ncnc(N)c23)cc1 | CDK5 | cell-free assay, competition with immobilised ligand | – | 1 µM | – | remaining binding | 88% |
| O=C=[N][Ru-4]123([n]4c5ccc(O)cc5c5c6c(c7cc(F)c[n+]1c7c54)C(=O)NC6=O)[S+]1CC[S+]2CC[S+]3CC1 (stereo not shown) | CDK5 with p35 | enzyme activity | – | 100 nM, human enzyme, added: 10 µM ATP | relative to: untreated | remaining activity | 98% |
| O=c1c(-c2ccc(Cl)c(CN3CCOCC3)c2)coc2cc(O)ccc12 | CDK5 with p35 | enzyme activity, inhibitor | – | 1 µM | – | remaining activity | 105% |
| CNC(=O)C1CCN(c2cc(C)c(F)cc2NC(=O)c2ccc(-c3cc(O)ccc3C)c(C)c2)CC1 | CDK5 | binding, competition with immobilised ligand | – | 1 µM | – | remaining binding | 100% |
| COc1cc(Nc2nccc(-c3cnn4nc(OC)ccc34)n2)cc(C(F)(F)F)c1 | CDK5 | binding, competition with immobilised ligand | – | 1 µM | – | remaining binding | 88% |
| Cc1cccc(O[C@H]2CCC[C@@H](C(C)CNCc3ccncc3)C2)c1 (relative stereo) | CDK5 with p25 | enzyme activity, inhibitor | – | 1 µM | – | inhibition | 0% |
| N[C@H]1CC[C@H](Nc2nccc(-c3cccnc3Oc3ccc(NC(=O)NC4CC4)c4ccccc34)n2)CC1 | CDK5 | kinobead competition pulldown | HEK293/HCT116 lysate mixture | 10 µM, 1 h, 4 °C | lower = stronger competition | log2 LFQ intensity | 29 and 28.9 and 28.8 and 28.7 |
| COc1ccc(NC(=O)Nc2ccc3c(c2)C(=O)N(C(C)CO)CC(C)C(CN(C)Cc2ccc4c(c2)OCO4)O3)cc1 (stereo not shown) | CDK5 with p35 | kinase activity, KinaseProfiler | – | 0.03 µM, species human | relative to: control | remaining activity | 97% |
| COCC12C(=O)NC3C4(C(OC)CC1O)C1CC5(O)C(OC)C(O)C(OC(C)=O)(C1C5OC(=O)c1ccccc1)C3(O)C(OC)C24 (stereo not shown) | CDK5 with p25 | kinase activity, inhibitor, ProQinase kinase profiling | – | 25 µM | relative to: control | remaining activity | 97% and 109% |
| Cc1nn(C)c(C)c1/C=C/C(=O)N1CCC[C@H](Cc2ccc(Nc3ccccn3)nn2)C1 | CDK5 with p25 | enzyme activity, inhibitor, ADP detection | – | 1 µM | – | activity vs control | 98% |
| CNC(=O)C[C@H](Cc1ccc(C#N)cc1)NC(=O)c1cc(-c2ccc(CN[C@H](C)c3ccc(C)cc3)o2)ccc1Cl | CDK5 with p35 | enzyme activity, inhibitor | – | 1 µM | – | activity vs control | 104% |
| CN1C[C@@H](c2c[nH]c3cc(Br)ccc23)NC[C@@H]1c1c[nH]c2cc(Br)ccc12 | CDK5 with p25 | – | – | 10 µM | relative to: control | remaining activity | 101% |
| CCc1nnc(Nc2cnc([C@@H]3CCCN(C(=O)CCc4cccnc4)C3)cn2)s1 | CDK5 with p35 | enzyme activity, inhibitor, ADP detection | – | 1 µM | – | activity vs control | 102% |
